Assay results collected from several papers.
Each line is one published result; not all experiments were run side by side. “And” joins repeats or separate records; there may be more than shown. ± gives the spread as reported.

N#Cc1ccc(-c2cnc(C(=O)CCCCCCc3ccccc3)o2)nc1
duration of inhibition (fatty-acid amide hydrolase (mouse); refers to: AEA, OEA, PEA levels; mouse, brain; i.p., dose not given): > 6 h

c1ccc(-c2n[nH]cc2-c2ccnc3ccccc23)nc1
log2 fold change (HRK1 (Candida albicans); kinase binding, MIB/MS competition; Candida albicans lysate; 10 µM; baseline: DMSO): -0.02

O=C(N/N=C/c1ccc2c(ccc[n+]2Cc2ccccc2)c1)C(=O)N/N=C/c1ccc2c(ccc[n+]2Cc2ccccc2)c1
ΔTm (22CTA telomeric G4-DNA antiparallel; FRET melting; 1 µM, K10 buffer, DNA 0.2 µM): 9.3 ± 1.5 °C

Cc1cn(CC(=O)N(CCNC(=O)CN(CCNC(=O)CN(CCNC(=O)CN(CCNC(=O)CN(CCNC(=O)CN(CCNC(=O)CN(CCNC(=O)CN(CCN)C(=O)Cn2cnc3c(=O)[nH]c(N)nc32)C(=O)Cn2cnc3c(N)ncnc32)C(=O)Cn2cc(C)c(=O)[nH]c2=O)C(=O)Cn2cnc3c(=O)[nH]c(N)nc32)C(=O)Cn2cc(C)c(=O)[nH]c2=O)C(=O)Cn2cnc3c(=O)[nH]c(N)nc32)C(=O)Cn2cnc3c(N)ncnc32)CC(=O)NCCN(CC(=O)NCCOCCOCC(N)=O)C(=O)Cn2cnc3c(N)ncnc32)c(=O)[nH]c1=O
ΔTm (mismatched RNA TU; duplex formation, UV melting; baseline: complementary RNA): -14.3 °C

C=CC(=O)Nc1cccc(Cn2ncc3cnc(Nc4cnn(CCOC)c4)nc32)c1
percent of control (MKK7 human; binding, KINOMEscan; 100 nM; lower = stronger binding): 80%

COc1c(Cl)cccc1Nc1c(-c2ccncc2C#C[C@@]2(C)CCCN2C(=O)/C=C/CN(C)C)[nH]c2c1C(=O)NCC2
log2 fold change (DUSP4 human; cysteine engagement, chemoproteomic profiling, refers to: DUSP4 peptide 244-252; NCI-H2073; 10 µM, 2 h; baseline: DMSO): 2.45

OC[C@H]1O[C@@H]2O[C@H]3[C@H](O)[C@@H](O)[C@@H](O[C@H]4[C@H](O)[C@@H](O)[C@@H](O[C@H]5[C@H](O)[C@@H](O)[C@@H](O[C@H]6[C@H](O)[C@@H](O)[C@@H](O[C@H]7[C@H](O)[C@@H](O)[C@@H](O[C@H]1[C@H](O)[C@H]2O)O[C@@H]7CO)O[C@@H]6CO)O[C@@H]5CO)O[C@@H]4CO)O[C@@H]3CO
bioluminescence induction (LuxR; Escherichia coli sensor; 10 µM; higher = stronger induction): 771 ± 69 RLU

C=C(NC(=O)c1csc(-c2nc3c(cc2O)-c2nc(cs2)C(=O)NC(C(C)O)C(=O)NC(=C(C)OC)c2nc(cs2)C(=O)NC2c4nc(cs4)C(=O)NC(COC(=O)c4c5c6c(cccc6n4O)COC(=O)C(OC4CC(C)(O)C(N(C)C)C(C)O4)C2OC5)c2nc-3cs2)n1)C(N)=O (stereo not shown)
Cmax (cynomolgus monkey, female, plasma; intravenous infusion, 1.5 mg/kg twice daily, 0 to 30 h): 16900 ng/mL

C[n+]1ccc(/C=N/NC(=O)C(=O)N/N=C/c2cc[n+](C)c3ccccc23)c2ccccc21
ΔTm (22CTA telomeric G4-DNA antiparallel; FRET melting; 1 µM, K10 buffer, DNA 0.2 µM, together with: ds26 10 µM): 2 ± 0.6 °C

Cn1ccc2cc(-n3c(=O)[nH]c4sc5c(c4c3=O)CCCC5)ccc21
inhibition (human KATP potassium channel; radioligand binding; 10 µM): -5%

O=c1c(-c2cnn(-c3ccc(Cl)cc3)c2)c(C(F)(F)F)oc2c(O)c(O)ccc12
di-ubiquitin formed (ROC1-CUL1 E3 subcomplex; di-ubiquitin synthesis; 75 µM; baseline: input): 61%

O=C(N/N=C/c1ccc(C[n+]2ccccc2)cc1)c1cccc(C(=O)N/N=C/c2ccc(C[n+]3ccccc3)cc2)c1
ΔTm (22CTA telomeric G4-DNA antiparallel; FRET melting; 1 µM, K10 buffer, DNA 0.2 µM, together with: ds26 10 µM): 3.3 ± 0.2 °C

O=C(NC1CCOCC1)c1ccc(C2CCCCC2)cc1
hepatic clearance (liver microsome stability; cynomolgus liver microsomes; 1 µM): 42 mL/min/kg

O=C(N/N=C/c1ccc2c(ccc[n+]2Cc2ccccc2)c1)c1cccc(C(=O)N/N=C/c2ccc3c(ccc[n+]3Cc3ccccc3)c2)n1
ΔTm (22CTA telomeric G4-DNA antiparallel; FRET melting; 1 µM, K10 buffer, DNA 0.2 µM): 16.3 ± 0.5 °C

O=C(COCC(F)F)Nc1ccc([C@H]2[C@@H](F)[C@@H](F)C[C@@H](F)[C@H]2F)cc1
hepatic clearance (liver microsome stability; dog liver microsomes; 1 µM): 13 mL/min/kg

Nc1ncc(-c2cc(-c3cnn(CC(F)(F)F)c3)ncc2F)nc1C(=O)NC1CNCC(F)C1 (stereo not shown)
remaining binding (CDC2L1; KINOMEscan; 1 µM; baseline: DMSO control): 100%

O=C(N/N=C/c1cc[n+](Cc2ccccc2)c2ccccc12)N/N=C/c1cc[n+](Cc2ccccc2)c2ccccc12
ΔTm (22CTA telomeric G4-DNA antiparallel; FRET melting; 1 µM, K10 buffer, DNA 0.2 µM): 13.1 ± 0.8 °C

c1ccc(CSc2nc3ccccc3cc2CNCCC2CCN(C3CCCC3)CC2)cc1
inhibition (electron transport chain; proton pumping, ACMA quenching; Pseudomonas aeruginosa inverted membrane vesicles; 2 µg/mL, together with: NADH): 4%

O=C(N/N=C/c1ccc2c(ccc[n+]2Cc2ccccc2)c1)c1cccc(C(=O)N/N=C/c2ccc3c(ccc[n+]3Cc3ccccc3)c2)c1
ΔTm (22CTA telomeric G4-DNA antiparallel; FRET melting; 1 µM, K10 buffer, DNA 0.2 µM, together with: ds26 10 µM): 13.6 ± 0.2 °C

C=CC(=O)N1[C@@H](c2ccc3c(c2)OCO3)c2[nH]c3ccccc3c2C[C@H]1C(=O)N1CCN(C)CC1
relative co-enrichment (human cyclin E1 N112C-3xFLAG:CDK2; co-IP with TMT proteomics, refers to: ELP5; concentration not given, Q8TE02; baseline: wild type DMSO): 65%

O=c1c(Oc2ccccc2)c(C(F)(F)F)oc2c(O)c(O)ccc12
di-ubiquitin formed (ROC1-CUL1 E3 subcomplex; di-ubiquitin synthesis; 3 µM; baseline: input): 61%

C[n+]1ccc(/C=N/NC(=O)c2cccc(C(=O)N/N=C/c3cc[n+](C)c4ccccc34)c2)c2ccccc21
ΔTm (22CTA telomeric G4-DNA antiparallel; FRET melting; 1 µM, K10 buffer, DNA 0.2 µM): 8.3 ± 0.5 °C

CC(C)Oc1cc(Cl)ccc1CNc1cc(-c2ccccc2)nc2ncnn12
cAMP luminescence (endogenous β-adrenergic receptors; cAMP level, cAMP GloSensor; mock-transfected cells; 3 µM, together with: isoprenaline 30 nM; higher = more cAMP): 29100 a.u. and 25300 a.u. and 25100 a.u.

C=CC(=O)N1Cc2nc(-c3cc(-c4cc(Cl)cnc4Cl)c(F)cc3F)n(-c3ccncn3)c2C1
IC50 (ERK (human); ERK phosphorylation, inhibitor, HTRF; 2 h): 32 nM

Cc1[nH]nc2c1N=C(c1ccccc1Cl)c1cnc(N3CCOCC3)cc1N2
inhibition (NMDA receptor agonist site, rat; radioligand binding; 10 µM): 0%

Some of these lines once more:
C[n+]1ccc(/C=N/NC(=O)c2cccc(C(=O)N/N=C/c3cc[n+](C)c4ccccc34)c2)c2ccccc21
ΔTm (22CTA telomeric G4-DNA antiparallel; FRET melting; 1 µM, K10 buffer, DNA 0.2 µM): 8.3 ± 0.5 °C

O=C(N/N=C/c1ccc2c(ccc[n+]2Cc2ccccc2)c1)c1cccc(C(=O)N/N=C/c2ccc3c(ccc[n+]3Cc3ccccc3)c2)c1
ΔTm (22CTA telomeric G4-DNA antiparallel; FRET melting; 1 µM, K10 buffer, DNA 0.2 µM, together with: ds26 10 µM): 13.6 ± 0.2 °C
